Experimental data from different studies.
Compare with care: the assays were run in different laboratories.
Organism: Staphylococcus aureus

CC[C@H](C)[C@H](NC(=O)[C@H](CC(C)C)NC(=O)[C@H](CCCNC(=N)N)NC(=O)[C@@H](N)CCCNC(=N)N)C(=O)N[C@@H](CCCNC(=N)N)C(=O)N[C@@H](CCCCN)C(=O)N[C@@H](CC(C)C)C(=O)N[C@@H](CCCCN)C(=O)NCC(=O)N[C@@H](CC(C)C)C(=O)N[C@@H](CCCCN)C(=O)N[C@@H](CCCCN)C(=O)N[C@@H](Cc1ccc(O)cc1)C(=O)N[C@@H](CC(C)C)C(=O)N[C@@H](Cc1ccc(O)cc1)C(=O)N[C@@H](Cc1ccccc1)C(=O)N[C@@H](CCCCN)C(=O)N[C@@H](CC(C)C)C(=O)N[C@@H](CCC(N)=O)C(=O)N[C@@H](CC(C)C)C(=O)N[C@@H](CC(C)C)C(=O)N[C@@H](CCCCN)C(=O)N[C@@H](CCCCN)C(N)=O — MIC (KCTC 1621, Mueller-Hinton broth; together with: 4.5 mM KCl): 8 µM
CC[C@H](C)[C@H](NC(=O)[C@H](CC(=O)O)NC(=O)[C@@H](NC(=O)[C@H](CC(N)=O)NC(=O)[C@@H]1CCCN1C(=O)[C@@H](NC(=O)[C@@H](N)Cc1ccccc1)[C@@H](C)O)[C@@H](C)O)C(=O)N[C@H](C(=O)N[C@H](C(=O)N[C@@H](CCCNC(=N)N)C(=O)N[C@H](C(=O)N[C@H](C(=O)NCC(=O)NCC(=O)NCC(=O)NCC(=O)NCC(=O)N[C@@H](CC(C)C)C(=O)N[C@@H](CCCCN)C(=O)N[C@@H](CCCCN)C(=O)N[C@@H](CC(C)C)C(=O)N[C@@H](CC(C)C)C(=O)N[C@@H](CC(C)C)C(=O)N[C@@H](CC(C)C)C(=O)N[C@@H](CC(C)C)C(=O)N[C@@H](CCCCN)C(=O)N[C@@H](CCCCN)C(=O)N[C@@H](CC(C)C)C(=O)NCC(=O)O)[C@@H](C)O)[C@@H](C)O)[C@@H](C)O)[C@@H](C)CC — MIC (ATCC 25923, Mueller-Hinton broth; 18 to 24 h, 37 °C): > 256 µg/mL
CCCCCCCCCCCCCCCC(=O)NS(=O)(=O)OCC — MIC (ATCC 33591 methicillin-resistant): > 200 µg/mL
CC(C)C[C@@H]1NC(=O)[C@H](Cc2ccccc2)NC(=O)[C@H](Cc2ccc(O)cc2)NC(=O)[C@H](CC(C)C)NC(=O)[C@H](CCC(=O)O)NC(=O)[C@H](Cc2ccccc2)NC(=O)[C@H](CCCNC(=N)N)NC(=O)[C@H](CCC(N)=O)NC(=O)[C@H](CC(C)C)NC(=O)[C@H](CC(=O)O)NC(=O)[C@@H]2CCCN2C(=O)[C@H](CCCCN)NC(=O)[C@H](C(C)C)NC(=O)[C@H](CC(N)=O)NC(=O)[C@H](Cc2ccc(O)cc2)NC(=O)[C@H]([C@@H](C)O)NC(=O)[C@@H](N)CSSC[C@@H](C(=O)O)NC(=O)[C@H]([C@@H](C)O)NC(=O)[C@H](C(C)C)NC(=O)[C@H]([C@@H](C)O)NC(=O)CNC1=O — MIC (broth dilution; laboratory strain; 24 h): > 40 µM
CC[C@H](C)[C@H](NC(=O)[C@H](CCCCN)NC(=O)[C@H](CC(=O)O)NC(=O)[C@H](CC(C)C)NC(=O)[C@@H](NC(=O)[C@H](CC(N)=O)NC(=O)[C@H](CC(C)C)NC(=O)[C@@H](NC(=O)[C@H](Cc1ccccc1)NC(=O)[C@H](CCCCN)NC(=O)[C@H](CCCCN)NC(=O)CNC(=O)[C@H](C)NC(=O)[C@H](CC(N)=O)NC(=O)[C@H](CCCCN)NC(=O)[C@H](Cc1ccccc1)NC(=O)[C@H](CC(N)=O)NC(=O)[C@H](CCC(=O)O)NC(=O)[C@H](Cc1c[nH]c2ccccc12)NC(=O)[C@H](CC(C)C)NC(=O)[C@@H](N)CO)[C@@H](C)CC)[C@@H](C)CC)C(=O)N[C@@H](CCCNC(=N)N)C(N)=O — MIC (ATCC 6538; overnight, 37 °C, together with: 4.5 mM KCl): 2 µM
CCCCCCC#Cc1cncc(-c2nnc(SCc3cc([N+](=O)[O-])cc([N+](=O)[O-])c3)n2C2CCNCC2)c1 — MIC (broth microdilution; Mu50 MRSA VISA; 18 to 24 h, 37 °C): 8 µg/mL
CC[C@H](C)[C@H](NC(=O)[C@H](CC(C)C)NC(=O)[C@H](CCCNC(=N)N)NC(=O)[C@@H](N)CCCNC(=N)N)C(=O)N[C@@H](CCCNC(=N)N)C(=O)N[C@H](C(=O)N[C@@H](CC(=O)O)C(=O)N[C@H](C(=O)NCC(=O)N1CCC[C@H]1C(=O)N[C@H](C(=O)N[C@H](C(=O)N[C@@H](Cc1ccc(O)cc1)C(=O)N[C@@H](CC(=O)O)C(=O)N[C@@H](Cc1ccc(O)cc1)C(=O)N[C@@H](Cc1ccccc1)C(=O)N[C@@H](CCCCN)C(=O)N[C@@H](CC(=O)O)C(=O)N[C@@H](CCC(N)=O)C(=O)N[C@@H](CC(C)C)C(=O)N[C@@H](CC(C)C)C(=O)N[C@@H](CCCCN)C(=O)N[C@@H](CCCCN)C(N)=O)[C@@H](C)CC)[C@@H](C)CC)[C@@H](C)O)[C@@H](C)O — MIC (broth microdilution; KCTC 1621, Mueller-Hinton broth; 24 h, 37 °C): > 128 µM
COC(=O)c1cc(-c2cccc(NC(=O)Nc3ccc(C(F)(F)F)cc3)c2)on1 — MIC (ATCC 29213, CAMHB; 16 to 18 h): 16 µg/mL
Cc1ccc2[nH]c3c(c2c1)CCCC3NCCc1ccc(Br)cc1 (stereo not shown) — MIC (broth microdilution; Mu50 VISA): 4 µg/mL
CC(C)C[C@@H](NC(=O)CNC(=O)[C@@H](CCCCN)NC(=O)[C@@H](CC(C)C)NC(=O)[C@@H](CCCCN)NC(=O)[C@@H](CCCNC(=N)N)NC(=O)[C@@H](CC(C)C)NC(=O)[C@@H](CC(C)C)NC(=O)[C@@H](CCCNC(=N)N)NC(=O)[C@H](N)CCCNC(=N)N)C(=O)N[C@H](CCCCN)C(=O)N[C@H](CCCCN)C(=O)N[C@H](Cc1ccc(O)cc1)C(=O)N[C@H](CC(C)C)C(=O)N[C@H](Cc1ccc(O)cc1)C(=O)N[C@H](Cc1ccccc1)C(=O)N[C@H](CCCCN)C(=O)N[C@H](CC(C)C)C(=O)N[C@H](CCC(N)=O)C(=O)N[C@H](CC(C)C)C(=O)N[C@H](CC(C)C)C(=O)N[C@H](CCCCN)C(=O)N[C@H](CCCCN)C(N)=O — MIC (broth microdilution; KCTC 1621, Mueller-Hinton broth; together with: NH4Cl 6 µM): 8 µM
CC[C@H](C)[C@H](NC(=O)[C@H](CC(C)C)NC(=O)[C@H](CC(C)C)NC(=O)[C@H](CC(C)C)NC(=O)[C@@H](NC(=O)[C@@H](NC(=O)[C@H](CCCNC(=N)N)NC(=O)[C@H](CCCNC(=N)N)NC(=O)[C@H](CCCNC(=N)N)NC(=O)[C@H](CCCNC(=N)N)NC(=O)[C@H](CC(C)C)NC(=O)[C@H](CCCNC(=N)N)NC(=O)[C@H](CO)NC(=O)[C@@H](N)CO)[C@@H](C)CC)C(C)C)C(=O)N[C@@H](CO)C(=O)N[C@@H](CCCNC(=N)N)C(=O)N[C@@H](CCCNC(=N)N)C(=O)N[C@@H](CCCNC(=N)N)C(=O)N[C@@H](CCCNC(=N)N)C(N)=O — MIC (broth microdilution; ATCC 29213; highest value reported): 4 µM
CCCCCCCCCC(=O)N[C@@H](Cc1c[nH]c2ccccc12)C(=O)N[C@H](CC(N)=O)C(=O)N[C@@H](CC(=O)O)C(=O)N[C@@H]1C(=O)NCC(=O)N[C@@H](CCCN)C(=O)N[C@@H](CC(=O)O)C(=O)N[C@H](C)C(=O)N[C@@H](CC(=O)O)C(=O)NCC(=O)N[C@H](CO)C(=O)N[C@@H]([C@H](C)CC(=O)O)C(=O)N[C@@H](CC(=O)c2ccccc2N)C(=O)O[C@@H]1C — MIC (mecA−, antibiotic-susceptible): 4 µg/mL
CC[C@H](C)[C@H](NC(=O)[C@H](Cc1ccccc1)NC(=O)[C@@H](NC(=O)[C@H](Cc1c[nH]c2ccccc12)NC(=O)[C@@H]1CCCN1C(=O)[C@@H](NC(=O)[C@H](C)N)[C@@H](C)CC)[C@@H](C)CC)C(=O)N[C@@H](Cc1ccccc1)C(=O)N[C@@H](CCCNC(=N)N)C(=O)N[C@@H](CC(C)C)C(=O)N[C@@H](CC(C)C)C(=O)N[C@@H](CCCNC(=N)N)C(=O)N[C@@H](CCCCN)C(=O)NCC(N)=O — MIC (broth microdilution; ATCC 19609; 18 h, 37 °C): 1.88 µM
